Assay results of several laboratories.
Compare with care: the assays were run in different laboratories. Several values in a cell are separate wells, animals, samples, runs or records. ± marks the error that the study gave.
PPARG ligand-binding domain: Peroxisome proliferator-activated receptor gamma, ligand-binding domain (PPARG, Homo sapiens, UniProt P37231)
Chain of UniProt P37231 (whole entry, looked up): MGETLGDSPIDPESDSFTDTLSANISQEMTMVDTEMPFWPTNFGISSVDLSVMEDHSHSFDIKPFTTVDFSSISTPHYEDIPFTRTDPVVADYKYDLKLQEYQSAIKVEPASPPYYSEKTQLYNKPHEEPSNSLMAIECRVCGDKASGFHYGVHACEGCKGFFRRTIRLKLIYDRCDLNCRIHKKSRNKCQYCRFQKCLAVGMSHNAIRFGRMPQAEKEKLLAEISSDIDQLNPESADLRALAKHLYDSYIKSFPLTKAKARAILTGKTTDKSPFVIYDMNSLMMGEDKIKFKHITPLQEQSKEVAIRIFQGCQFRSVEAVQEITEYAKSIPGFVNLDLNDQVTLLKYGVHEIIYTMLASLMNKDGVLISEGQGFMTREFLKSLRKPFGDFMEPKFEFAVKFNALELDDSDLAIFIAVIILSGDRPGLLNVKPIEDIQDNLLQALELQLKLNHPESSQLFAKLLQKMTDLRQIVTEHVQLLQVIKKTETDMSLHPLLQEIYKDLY
Rhomboid protease AarA: Rhomboid protease AarA (Providencia stuartii, UniProt P46116)
Chain of UniProt P46116 (whole entry, looked up): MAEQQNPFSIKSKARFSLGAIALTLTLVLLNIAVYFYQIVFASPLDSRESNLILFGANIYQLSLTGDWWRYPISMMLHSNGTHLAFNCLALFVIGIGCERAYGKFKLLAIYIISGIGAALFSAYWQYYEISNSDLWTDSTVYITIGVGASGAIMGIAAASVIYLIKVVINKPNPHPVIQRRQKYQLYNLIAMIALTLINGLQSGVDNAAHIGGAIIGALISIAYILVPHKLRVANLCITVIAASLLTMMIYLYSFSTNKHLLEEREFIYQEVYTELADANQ
PPARG: Peroxisome proliferator-activated receptor gamma (PPARG, Homo sapiens, UniProt P37231)
Chain of UniProt P32245 (whole entry, looked up): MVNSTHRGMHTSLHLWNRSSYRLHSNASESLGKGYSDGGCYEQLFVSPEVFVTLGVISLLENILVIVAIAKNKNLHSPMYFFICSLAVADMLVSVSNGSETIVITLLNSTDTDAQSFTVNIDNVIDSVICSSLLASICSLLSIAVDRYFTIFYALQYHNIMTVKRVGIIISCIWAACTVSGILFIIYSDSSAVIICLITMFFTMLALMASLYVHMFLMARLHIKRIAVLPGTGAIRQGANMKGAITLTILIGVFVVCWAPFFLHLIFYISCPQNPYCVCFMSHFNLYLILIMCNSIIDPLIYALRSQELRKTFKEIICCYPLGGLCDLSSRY
Chain of UniProt P22309 (whole entry, looked up): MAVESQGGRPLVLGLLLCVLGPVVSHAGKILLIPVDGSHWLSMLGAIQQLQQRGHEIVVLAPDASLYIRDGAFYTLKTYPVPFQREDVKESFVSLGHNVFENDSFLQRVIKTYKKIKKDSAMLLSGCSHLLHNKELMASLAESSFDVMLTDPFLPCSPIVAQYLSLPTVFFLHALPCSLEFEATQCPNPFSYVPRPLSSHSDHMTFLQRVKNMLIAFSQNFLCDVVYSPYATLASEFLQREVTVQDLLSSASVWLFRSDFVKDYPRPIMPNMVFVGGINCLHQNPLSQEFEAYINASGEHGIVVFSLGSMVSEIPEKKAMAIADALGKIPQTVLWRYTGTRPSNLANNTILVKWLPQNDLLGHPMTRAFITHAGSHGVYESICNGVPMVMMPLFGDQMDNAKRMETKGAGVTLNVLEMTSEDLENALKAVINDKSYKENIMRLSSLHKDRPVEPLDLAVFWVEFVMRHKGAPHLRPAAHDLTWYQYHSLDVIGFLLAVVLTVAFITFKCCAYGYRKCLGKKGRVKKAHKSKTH
Chain of UniProt P43358 (whole entry, looked up): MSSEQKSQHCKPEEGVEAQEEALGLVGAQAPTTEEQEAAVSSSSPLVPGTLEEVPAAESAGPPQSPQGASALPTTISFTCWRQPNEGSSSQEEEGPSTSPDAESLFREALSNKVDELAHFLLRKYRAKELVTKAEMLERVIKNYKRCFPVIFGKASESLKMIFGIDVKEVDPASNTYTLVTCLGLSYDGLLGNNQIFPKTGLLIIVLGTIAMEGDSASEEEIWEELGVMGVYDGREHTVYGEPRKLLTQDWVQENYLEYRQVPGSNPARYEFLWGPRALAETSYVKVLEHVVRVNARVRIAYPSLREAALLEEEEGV
Chain of UniProt P08173 (whole entry, looked up): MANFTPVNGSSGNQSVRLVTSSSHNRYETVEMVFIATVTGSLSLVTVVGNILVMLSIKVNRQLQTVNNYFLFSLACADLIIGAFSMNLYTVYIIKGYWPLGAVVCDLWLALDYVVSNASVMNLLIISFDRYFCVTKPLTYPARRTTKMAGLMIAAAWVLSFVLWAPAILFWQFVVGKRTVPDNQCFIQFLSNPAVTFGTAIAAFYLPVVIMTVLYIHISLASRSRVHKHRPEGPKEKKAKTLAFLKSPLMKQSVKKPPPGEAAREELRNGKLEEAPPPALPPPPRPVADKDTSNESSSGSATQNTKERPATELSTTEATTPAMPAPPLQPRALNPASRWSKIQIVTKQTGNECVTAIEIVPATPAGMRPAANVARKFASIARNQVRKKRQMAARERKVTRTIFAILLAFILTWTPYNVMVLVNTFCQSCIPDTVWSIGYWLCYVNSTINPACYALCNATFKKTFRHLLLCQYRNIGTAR
Chain of UniProt Q92793 (whole entry, looked up): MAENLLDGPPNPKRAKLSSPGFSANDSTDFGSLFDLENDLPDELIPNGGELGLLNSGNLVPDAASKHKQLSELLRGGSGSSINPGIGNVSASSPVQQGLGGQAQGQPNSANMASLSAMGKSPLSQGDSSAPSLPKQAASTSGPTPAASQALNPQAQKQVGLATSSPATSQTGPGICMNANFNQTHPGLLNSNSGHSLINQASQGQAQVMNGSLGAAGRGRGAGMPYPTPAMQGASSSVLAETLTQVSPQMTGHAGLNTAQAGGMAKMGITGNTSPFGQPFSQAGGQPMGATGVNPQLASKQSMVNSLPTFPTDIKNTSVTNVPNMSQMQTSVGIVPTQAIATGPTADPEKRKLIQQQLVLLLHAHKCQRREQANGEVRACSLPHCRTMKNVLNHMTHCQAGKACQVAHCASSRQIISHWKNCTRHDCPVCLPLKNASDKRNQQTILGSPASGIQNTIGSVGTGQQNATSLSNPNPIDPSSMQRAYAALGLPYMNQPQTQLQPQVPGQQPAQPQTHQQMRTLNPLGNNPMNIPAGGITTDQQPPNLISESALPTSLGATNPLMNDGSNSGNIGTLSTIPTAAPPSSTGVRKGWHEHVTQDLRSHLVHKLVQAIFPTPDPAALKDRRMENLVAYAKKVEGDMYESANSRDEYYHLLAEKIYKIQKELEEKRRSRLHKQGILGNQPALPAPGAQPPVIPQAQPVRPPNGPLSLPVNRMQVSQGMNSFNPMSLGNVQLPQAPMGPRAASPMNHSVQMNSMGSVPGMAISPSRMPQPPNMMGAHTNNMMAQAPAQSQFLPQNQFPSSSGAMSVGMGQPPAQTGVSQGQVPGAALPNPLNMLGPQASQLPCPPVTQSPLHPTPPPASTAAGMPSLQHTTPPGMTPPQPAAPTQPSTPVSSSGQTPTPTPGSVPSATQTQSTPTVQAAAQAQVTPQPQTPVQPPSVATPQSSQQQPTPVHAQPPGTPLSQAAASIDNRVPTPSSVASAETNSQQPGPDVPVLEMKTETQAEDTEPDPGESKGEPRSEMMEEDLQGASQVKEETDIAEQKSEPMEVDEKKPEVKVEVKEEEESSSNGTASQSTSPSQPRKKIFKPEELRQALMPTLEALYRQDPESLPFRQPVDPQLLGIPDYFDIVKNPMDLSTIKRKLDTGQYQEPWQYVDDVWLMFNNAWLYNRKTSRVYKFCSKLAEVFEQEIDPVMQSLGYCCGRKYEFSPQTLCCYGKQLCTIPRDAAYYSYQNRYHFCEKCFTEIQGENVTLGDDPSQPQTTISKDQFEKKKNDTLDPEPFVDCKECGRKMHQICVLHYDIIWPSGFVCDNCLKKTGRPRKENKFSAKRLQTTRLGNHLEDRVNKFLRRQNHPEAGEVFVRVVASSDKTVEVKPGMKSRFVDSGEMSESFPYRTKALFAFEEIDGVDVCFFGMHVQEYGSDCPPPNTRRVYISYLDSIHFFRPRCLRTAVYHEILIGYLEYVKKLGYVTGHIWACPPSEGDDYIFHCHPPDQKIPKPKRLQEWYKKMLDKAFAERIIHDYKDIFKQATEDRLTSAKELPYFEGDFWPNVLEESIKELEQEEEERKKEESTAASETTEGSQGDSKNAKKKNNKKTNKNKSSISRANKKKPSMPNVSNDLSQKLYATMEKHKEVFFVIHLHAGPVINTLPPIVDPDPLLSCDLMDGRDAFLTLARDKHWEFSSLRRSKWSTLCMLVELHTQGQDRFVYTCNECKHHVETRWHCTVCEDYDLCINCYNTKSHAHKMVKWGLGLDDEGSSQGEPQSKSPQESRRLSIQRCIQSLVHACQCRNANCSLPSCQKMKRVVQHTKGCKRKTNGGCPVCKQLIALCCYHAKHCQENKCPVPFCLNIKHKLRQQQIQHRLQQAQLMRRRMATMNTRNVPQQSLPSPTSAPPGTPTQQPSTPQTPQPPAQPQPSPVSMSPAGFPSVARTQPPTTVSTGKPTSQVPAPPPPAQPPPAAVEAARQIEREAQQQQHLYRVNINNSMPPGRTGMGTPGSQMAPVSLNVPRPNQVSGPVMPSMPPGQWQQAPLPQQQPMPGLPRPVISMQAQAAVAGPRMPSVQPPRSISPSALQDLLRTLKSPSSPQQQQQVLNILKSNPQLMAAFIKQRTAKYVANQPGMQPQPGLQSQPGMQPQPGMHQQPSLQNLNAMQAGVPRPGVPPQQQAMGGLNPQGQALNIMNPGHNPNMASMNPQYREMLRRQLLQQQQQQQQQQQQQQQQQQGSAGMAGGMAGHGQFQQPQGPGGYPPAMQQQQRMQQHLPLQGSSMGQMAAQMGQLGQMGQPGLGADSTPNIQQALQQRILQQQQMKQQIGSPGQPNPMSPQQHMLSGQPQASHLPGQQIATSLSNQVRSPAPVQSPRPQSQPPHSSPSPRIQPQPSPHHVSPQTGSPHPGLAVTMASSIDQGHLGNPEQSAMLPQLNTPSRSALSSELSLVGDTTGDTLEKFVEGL

`Cc1c(Cc2cccc(OC(C)(C)C(=O)O)c2)c2ccc(C(=O)N[C@@H](C)c3ccc(C(F)(F)F)cc3)cc2n1C` gave an IC50 of 3690 nM (PPARG ligand-binding domain; reporter gene, luciferase reporter; HEK293T, Gal4-PPARγ LBD).
With `CCOc1cccc(NC(=O)C(C(F)(F)F)C(F)(F)F)c1` the IC50 was 11000 nM (Rhomboid protease AarA; enzyme activity, inhibitor, fluorescence).
The IC50 of `Cc1c(Cc2ccc(O[C@H](C)C(=O)O)c(Cl)c2)c2ccc(C(=O)N[C@@H](C)c3ccc(C(C)(C)C)cc3)cc2n1C` is reported as 18800 nM (PPARG ligand-binding domain; reporter gene, luciferase reporter; HEK293T, Gal4-PPARγ LBD).
The IC50 of `CC(=O)N[C@@H](CCCNC(=N)N)C(=O)N[C@H]1CSSC[C@@H](C(N)=O)NC(=O)[C@H](Cc2c[nH]c3ccccc23)NC(=O)[C@H](CCCNC(=N)N)NC(=O)[C@@H](Cc2ccc3ccccc3c2)NC(=O)[C@H](Cc2c[nH]cn2)NC(=O)[C@@H](C)NC1=O` is reported as 14.2 nM and 14.1 nM (Melanocortin receptor 4 (MC4R, Homo sapiens, UniProt P32245); antagonist, split-luciferase cAMP sensor; 12 min, added: 70 nM α-MSH (EC90)).
`Cc1c(Cc2ccc(Cl)c(O[C@H](C)C(=O)O)c2)c2ccc(C(=O)NCc3ccc(C(C)(C)C)cc3)cc2n1C` has an IC50 of 6.12 nM (PPARG; ligand displacement, TR-FRET).
The IC50 of `CC[C@H](C)[C@@H]1NC(=O)[C@H](Cc2ccccc2)NC(=O)CSC[C@@H](C(N)=O)NC(=O)[C@H](CC(N)=O)NC(=O)[C@H](Cc2c[nH]cn2)NC(=O)[C@H](Cc2ccc(O)cc2)NC(=O)[C@H](CC(=O)O)NC(=O)[C@H](Cc2ccc(O)cc2)NC(=O)[C@H](CC(C)C)NC(=O)[C@H](CCCNC(=N)N)NC1=O` is reported as 48.2 ± 3.4 nM (Melanoma-associated antigen 4, MAGE homology domain (Homo sapiens, UniProt P43358); binding, inhibitor, TR-FRET displacement; added: Alexa647-MTP-1).
`COc1cc(-c2cc(C(C)=O)n3ccccc23)cc(OC)c1Cn1ccnc1` has an IC50 of 520 nM (CREB-binding protein (CREBBP, Homo sapiens, UniProt Q92793); inhibitor).
For `CC(=O)OC1CCC2(C)C(CCC3(C)C2CC=C2C4C(C)C(C)CCC4(C(=O)O)CCC23C)C1(C)C` (stereo not shown), the IC50 was greater than 100000 nM (UDP-glucuronosyltransferase 1A1 (UGT1A1, Homo sapiens, UniProt P22309); enzyme activity, inhibitor).
The IC50 of `O=C(Nc1ccc(Cc2ccccc2)cc1)C(C(F)(F)F)C(F)(F)F` is reported as 8100 nM (Rhomboid protease AarA; enzyme activity, inhibitor, fluorescence).
For `Cc1c(Cc2cc(Cl)cc(O[C@H](C)C(=O)O)c2)c2ccc(C(=O)N[C@@H](C)c3ccc(C(C)(C)C)cc3)cc2n1CC(C)C`, the IC50 was 107 nM (PPARG; ligand displacement, TR-FRET).
`O=C(CCNC(=O)CNC(=O)CC(c1ccccc1)(c1ccccc1)c1ccccc1)NCC1CCN(C(=O)c2ccc(F)cc2)CC1` gave an IC50 of greater than 30000 nM (Muscarinic acetylcholine receptor M4 (CHRM4, Homo sapiens, UniProt P08173); ligand displacement, radioligand; cell membranes).
With `COC(=O)CCCC(=O)Nc1ccc(Nc2ncc(F)c(-c3cc(F)c4nc(C)n(C(C)C)c4c3)n2)cc1` the IC50 was greater than 1000 nM (Histone deacetylase 1 (HDAC1, Homo sapiens, UniProt Q13547); enzyme activity, inhibitor).
With `Cc1cncn1Cc1ccc(-c2cccc(Br)c2)cc1` the IC50 was 1670 nM (Glutaminyl-peptide cyclotransferase-like protein (Homo sapiens, UniProt Q9NXS2)).
With `CC(C)Oc1ccccc1NC(=O)C(C(F)(F)F)C(F)(F)F` the IC50 was 2300 nM (Rhomboid protease AarA; enzyme activity, inhibitor, fluorescence).
For `Cc1nc(Nc2ncc(C(=O)Nc3c(C)cccc3Cl)s2)cc(N2CCN(CCNC(=O)c3ccc(C(=O)c4ccc(OCC(=O)NCCOCCOCCCCCCCl)cc4)cc3)CC2)n1`, the IC50 was less than 4 nM (Proto-oncogene tyrosine-protein kinase Src (SRC, Gallus gallus, UniProt P00523)).
With `Cc1c(Cc2ccc(OC(C)C(=O)O)cc2)c2ccc(C(=O)NC(C)c3cccc(C(F)(F)F)c3)cc2n1C` (mixture of isomers) the IC50 was 1950 nM (PPARG ligand-binding domain; reporter gene, luciferase reporter; HEK293T, Gal4-PPARγ LBD).
